Published values of several laboratories.
Lines come from different studies, so protocols differ. ± marks the error that the study gave.
Cell line: MDCK

For `COC(=O)[C@]1(C)CCC[C@]2(C)[C@H]3C[C@H]4C(C(C)C)=C[C@]3(CC[C@H]21)[C@H]1[C@@H]4[C@@H](OCC#CCN2CCCC2)CC[C@@H]1O`, the CC50 was 19 µM (cytotoxicity, MTT; 48 h).
`Cc1nc2n(n1)C(C)(O)C([N+](=O)[O-])=NN2` (stereo not drawn) has a CC50 of greater than 1420 µM (MTT; 48 h).
For `c1nc(N2CCCCCC2)ncc1CNC12CC3CC(CC(C3)C1)C2`, the CC50 was 38.1 µM (MTT).
The CC50 of `CCN(CC)CC#CCOC(=O)[C@]1(C)CCC[C@@]2(C)[C@H]1CC(C=O)=C1C=C(C(C)C)CC[C@@H]12` is reported as 718 µM (cytotoxicity, MTT; 48 h).
`COc1cc(-c2oc3cc(O[C@@H]4O[C@@H](C)[C@H](O)[C@@H](O)[C@H]4O)cc(O)c3c(=O)c2O[C@@H]2O[C@H](CO)[C@@H](O)[C@H](O)[C@H]2OC(=O)c2cc(O)c(O)c(O)c2)ccc1O` has a CC50 of greater than 133 µM (MTT; 48 h).
`c1nc(N2CCCCCC2)cnc1CNC12CC3CC(CC(C3)C1)C2` has a CC50 of 45.7 µM (MTT).
The CC50 of `COc1cc(-c2oc3cc(O[C@@H]4O[C@@H](C)[C@H](O)[C@@H](O)[C@H]4O)cc(O)c3c(=O)c2O[C@@H]2O[C@H](CO[C@@H]3O[C@@H](C)[C@H](O)[C@@H](O)[C@H]3O)[C@@H](O)[C@H](OC(C)=O)[C@H]2O)ccc1O` is reported as greater than 123 µM (MTT; 48 h).
`CC(C)C1=CC2=CC[C@@H]3[C@](C)(CCC[C@@]3(C)C(=O)OCC#CCN3CCOCC3)[C@H]2CC1` gave a CC50 of 7.9 µM (cytotoxicity, MTT; 48 h).
For `COc1ccc(CNc2ccc(C34CC5CC(CC(C5)C3)C4)cc2)c(O)c1`, the CC50 was greater than 100 µM.
`COC(=O)[C@]1(C)CCC[C@]2(C)[C@H]3C[C@H]4C(C(C)C)=C[C@]3(CC[C@H]21)[C@H]1[C@@H]4[C@@H](OCC#CCN2CCOCC2)CC[C@@H]1O` has a CC50 of 26 µM (cytotoxicity, MTT; 48 h).
`COc1ccc(CNC(C)(C)C23CC4CC(CC(C4)C2)C3)c(O)c1` gave a CC50 of greater than 100 µM.
With `CC(C)C1=C[C@@]23CC[C@@H]4[C@](C)(CCC[C@@]4(C)C(=O)NCC#CCN4CCCNCC4)[C@H]2C[C@@H]1C1=C3C(=O)C=CC1=O` the CC50 was 18 µM (cytotoxicity, MTT; 48 h).
With `COc1cc(-c2oc3cc(O[C@@H]4O[C@@H](C)[C@H](O)[C@@H](O)[C@H]4O)cc(O)c3c(=O)c2O[C@@H]2O[C@H](COC(=O)c3cc(O)c(O)c(O)c3)[C@@H](O)[C@H](O)[C@H]2OC(=O)c2cc(O)c(O)c(O)c2)ccc1O` the CC50 was greater than 108 µM (MTT; 48 h).
`CCOC(=O)c1nc2n(n1)C(O)(CC)C([N+](=O)[O-])=NN2` (stereo not drawn) gave a CC50 of greater than 1060 µM (MTT; 48 h).
The CC50 of `CC(C)C1=C[C@@]23CC[C@@H]4[C@](C)(CCC[C@@]4(C)C(=O)OCC#CCN4CCCC4)[C@H]2C[C@@H]1[C@H]1C(=O)OC(=O)[C@H]13` is reported as 36 µM (cytotoxicity, MTT; 48 h).
The CC50 of `CN(C)CCCC(=O)O[C@@H]1C[C@@H]2CC[C@@]1(C)C2(C)C` is reported as greater than 1120 µM (cell growth or viability, MTT; 48 h).
The CC50 of `O=C1/C(=N\NC(=S)NN=Cc2cccs2)c2ccccc2N1Cc1ccccc1` is reported as 46 µM (MTS).
The CC50 of `C/C=C/C#CC#C/C=C/c1ccco1` is reported as 162 µg/mL (cell growth or viability, MTT; 72 h).
`Cc1cc(-c2ccccc2)n2nc(-c3nc4sc5c(c4c(=O)o3)CCCCC5)nc2n1` has a CC50 of 101 ± 2 µM (MTT; 48 h).
`CN(C)CC(=O)O[C@@H]1C[C@@H]2CC[C@@]1(C)C2(C)C` has a CC50 of 597 µM (cell growth or viability, MTT; 48 h).
`CCC1(O)C([N+](=O)[O-])=NNc2ncnn21` (stereo not drawn) has a CC50 of 742 ± 51 µM (MTT; 48 h).
The CC50 of `CCN(CC)CC(=O)O[C@@H]1C[C@@H]2CC[C@@]1(C)C2(C)C` is reported as 79 µM (cell growth or viability, MTT; 48 h).
`CCC1(O)C([N+](=O)[O-])=NNc2nc(C)nn21` (stereo not drawn) has a CC50 of 907 ± 78 µM (MTT; 48 h).
With `COC(=O)c1c(C)[nH]c2c3c(c(O)c(CN4CCOCC4)c12)[C@H]1C[C@@H]2[C@@]4(C)CCC[C@@](C)(C(=O)OC)[C@@H]4CC[C@@]32C=C1C(C)C` the CC50 was 40 µM (cytotoxicity, MTT; 48 h).
The CC50 of `Cc1cc(O)cc2c1C(=O)c1c(O)cccc1C2=O` is reported as greater than 100 µM (cell growth or viability, crystal violet; 72 h).
With `CC(C)C1=C[C@@]23CC[C@@H]4[C@](C)(CCC[C@@]4(C)C(=O)OCC#CCN4CCOCC4)[C@H]2C[C@@H]1[C@H]1C(=O)OC(=O)[C@H]13` the CC50 was 20 µM (cytotoxicity, MTT; 48 h).
For `COc1cc(-c2oc3cc(O)cc(O)c3c(=O)c2O[C@@H]2O[C@H](CO[C@@H]3O[C@@H](C)[C@H](O)[C@@H](O)[C@H]3O)[C@@H](O)[C@H](OC(C)=O)[C@H]2O)ccc1O`, the CC50 was greater than 150 µM (MTT; 48 h).

Some of these lines once more:
`COc1cc(-c2oc3cc(O[C@@H]4O[C@@H](C)[C@H](O)[C@@H](O)[C@H]4O)cc(O)c3c(=O)c2O[C@@H]2O[C@H](CO)[C@@H](O)[C@H](O)[C@H]2OC(=O)c2cc(O)c(O)c(O)c2)ccc1O` has a CC50 of greater than 133 µM (MTT; 48 h).
`c1nc(N2CCCCCC2)cnc1CNC12CC3CC(CC(C3)C1)C2` has a CC50 of 45.7 µM (MTT).
The CC50 of `COc1cc(-c2oc3cc(O[C@@H]4O[C@@H](C)[C@H](O)[C@@H](O)[C@H]4O)cc(O)c3c(=O)c2O[C@@H]2O[C@H](CO[C@@H]3O[C@@H](C)[C@H](O)[C@@H](O)[C@H]3O)[C@@H](O)[C@H](OC(C)=O)[C@H]2O)ccc1O` is reported as greater than 123 µM (MTT; 48 h).
`CC(C)C1=CC2=CC[C@@H]3[C@](C)(CCC[C@@]3(C)C(=O)OCC#CCN3CCOCC3)[C@H]2CC1` gave a CC50 of 7.9 µM (cytotoxicity, MTT; 48 h).
